# Assay results pooled from the literature.
# A part holds a random share of what one study measured.
# Chain of UniProt O76039 (whole entry, looked up): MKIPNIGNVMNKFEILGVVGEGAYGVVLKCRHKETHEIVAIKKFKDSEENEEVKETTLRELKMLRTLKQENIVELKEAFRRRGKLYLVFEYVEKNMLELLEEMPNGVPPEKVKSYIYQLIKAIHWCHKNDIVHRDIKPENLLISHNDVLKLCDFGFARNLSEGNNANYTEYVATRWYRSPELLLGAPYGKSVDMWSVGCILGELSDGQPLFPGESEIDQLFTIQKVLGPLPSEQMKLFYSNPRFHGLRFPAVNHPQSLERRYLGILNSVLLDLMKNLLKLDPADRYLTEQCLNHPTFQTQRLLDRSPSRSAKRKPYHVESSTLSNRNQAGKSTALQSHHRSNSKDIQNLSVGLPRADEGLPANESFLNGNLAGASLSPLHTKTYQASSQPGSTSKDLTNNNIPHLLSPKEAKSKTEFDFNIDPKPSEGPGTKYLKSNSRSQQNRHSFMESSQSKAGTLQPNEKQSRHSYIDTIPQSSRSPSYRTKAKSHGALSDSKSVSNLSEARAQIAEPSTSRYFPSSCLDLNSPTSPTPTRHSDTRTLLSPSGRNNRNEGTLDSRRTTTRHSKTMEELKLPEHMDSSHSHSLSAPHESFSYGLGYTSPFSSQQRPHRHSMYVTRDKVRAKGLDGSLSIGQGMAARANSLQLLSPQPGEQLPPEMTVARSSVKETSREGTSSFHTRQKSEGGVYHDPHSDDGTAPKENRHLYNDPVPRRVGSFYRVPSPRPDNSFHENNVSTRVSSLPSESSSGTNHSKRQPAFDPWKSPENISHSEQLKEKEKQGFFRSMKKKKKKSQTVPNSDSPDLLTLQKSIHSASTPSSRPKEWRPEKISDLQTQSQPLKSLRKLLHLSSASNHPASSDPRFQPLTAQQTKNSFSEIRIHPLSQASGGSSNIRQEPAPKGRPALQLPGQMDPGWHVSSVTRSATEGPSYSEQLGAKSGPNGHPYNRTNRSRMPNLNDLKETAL
# Chain of UniProt Q8WXR4 (whole entry, looked up): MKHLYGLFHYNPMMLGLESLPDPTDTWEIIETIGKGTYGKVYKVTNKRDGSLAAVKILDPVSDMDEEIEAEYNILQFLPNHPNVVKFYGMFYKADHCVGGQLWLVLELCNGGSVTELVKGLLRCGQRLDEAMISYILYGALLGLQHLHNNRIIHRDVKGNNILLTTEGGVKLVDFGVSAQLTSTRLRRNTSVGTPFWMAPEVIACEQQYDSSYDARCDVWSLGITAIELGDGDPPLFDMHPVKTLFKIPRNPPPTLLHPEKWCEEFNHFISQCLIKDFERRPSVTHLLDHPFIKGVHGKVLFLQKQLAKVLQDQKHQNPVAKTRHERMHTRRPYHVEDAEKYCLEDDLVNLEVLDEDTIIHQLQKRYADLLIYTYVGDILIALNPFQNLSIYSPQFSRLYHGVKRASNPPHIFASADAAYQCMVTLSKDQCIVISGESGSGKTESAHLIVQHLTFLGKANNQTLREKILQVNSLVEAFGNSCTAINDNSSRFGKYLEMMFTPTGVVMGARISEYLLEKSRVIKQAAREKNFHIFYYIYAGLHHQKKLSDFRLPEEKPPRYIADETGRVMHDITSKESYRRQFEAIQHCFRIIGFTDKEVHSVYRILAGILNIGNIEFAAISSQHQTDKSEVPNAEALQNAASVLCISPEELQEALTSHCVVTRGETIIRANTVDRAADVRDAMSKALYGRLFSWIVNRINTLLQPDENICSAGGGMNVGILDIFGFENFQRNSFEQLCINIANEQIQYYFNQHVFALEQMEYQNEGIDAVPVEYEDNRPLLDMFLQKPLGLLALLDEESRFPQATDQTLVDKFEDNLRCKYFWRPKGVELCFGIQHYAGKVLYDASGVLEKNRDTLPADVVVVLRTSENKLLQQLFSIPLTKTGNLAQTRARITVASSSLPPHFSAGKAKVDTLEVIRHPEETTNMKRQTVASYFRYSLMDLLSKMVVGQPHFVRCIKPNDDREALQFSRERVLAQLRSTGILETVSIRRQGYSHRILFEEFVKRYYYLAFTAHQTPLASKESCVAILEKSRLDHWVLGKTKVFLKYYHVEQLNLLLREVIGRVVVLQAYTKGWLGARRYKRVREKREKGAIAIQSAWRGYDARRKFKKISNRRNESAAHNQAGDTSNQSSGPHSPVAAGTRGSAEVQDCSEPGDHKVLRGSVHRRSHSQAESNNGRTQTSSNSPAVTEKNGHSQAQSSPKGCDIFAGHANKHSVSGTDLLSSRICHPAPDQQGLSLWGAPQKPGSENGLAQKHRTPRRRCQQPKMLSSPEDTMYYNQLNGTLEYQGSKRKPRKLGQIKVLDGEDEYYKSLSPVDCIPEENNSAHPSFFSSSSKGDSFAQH
# Chain of UniProt Q13464 (whole entry, looked up): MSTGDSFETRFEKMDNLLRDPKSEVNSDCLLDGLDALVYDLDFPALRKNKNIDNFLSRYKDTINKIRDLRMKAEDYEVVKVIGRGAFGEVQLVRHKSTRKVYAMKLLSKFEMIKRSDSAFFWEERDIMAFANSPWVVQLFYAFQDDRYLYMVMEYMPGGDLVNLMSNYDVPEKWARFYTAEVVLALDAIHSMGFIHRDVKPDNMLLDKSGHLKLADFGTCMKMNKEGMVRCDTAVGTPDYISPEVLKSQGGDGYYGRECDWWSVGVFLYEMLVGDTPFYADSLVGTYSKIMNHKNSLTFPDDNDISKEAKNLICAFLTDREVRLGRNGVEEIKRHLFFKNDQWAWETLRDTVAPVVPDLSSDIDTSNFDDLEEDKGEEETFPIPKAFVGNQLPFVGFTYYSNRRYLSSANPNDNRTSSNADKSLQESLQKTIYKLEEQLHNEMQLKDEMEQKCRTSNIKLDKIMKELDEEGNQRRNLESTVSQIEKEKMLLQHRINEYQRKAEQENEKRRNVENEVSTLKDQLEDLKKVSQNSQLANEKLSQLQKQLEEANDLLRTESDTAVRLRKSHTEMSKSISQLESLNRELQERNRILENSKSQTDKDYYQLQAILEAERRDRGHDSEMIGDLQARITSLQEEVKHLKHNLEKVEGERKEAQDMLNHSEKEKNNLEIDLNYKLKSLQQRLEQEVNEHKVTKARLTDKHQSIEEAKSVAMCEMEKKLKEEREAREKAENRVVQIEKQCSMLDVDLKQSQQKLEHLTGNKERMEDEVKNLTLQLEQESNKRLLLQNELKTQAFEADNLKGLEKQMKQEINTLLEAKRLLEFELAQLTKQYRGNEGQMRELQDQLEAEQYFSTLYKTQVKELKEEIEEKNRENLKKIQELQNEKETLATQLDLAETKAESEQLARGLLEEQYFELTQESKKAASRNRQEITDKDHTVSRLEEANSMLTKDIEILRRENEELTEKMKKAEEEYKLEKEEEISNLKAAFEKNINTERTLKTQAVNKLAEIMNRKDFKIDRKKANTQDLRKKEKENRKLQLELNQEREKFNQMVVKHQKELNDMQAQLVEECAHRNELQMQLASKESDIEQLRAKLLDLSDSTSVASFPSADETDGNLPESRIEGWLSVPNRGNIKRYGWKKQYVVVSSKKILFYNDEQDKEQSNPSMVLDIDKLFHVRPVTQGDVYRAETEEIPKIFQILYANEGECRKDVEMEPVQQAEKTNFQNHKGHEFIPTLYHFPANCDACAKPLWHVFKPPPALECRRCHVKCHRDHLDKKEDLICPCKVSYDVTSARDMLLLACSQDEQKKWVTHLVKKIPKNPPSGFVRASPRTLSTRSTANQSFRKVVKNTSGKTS
# Chain of UniProt Q6P3R8 (whole entry, looked up): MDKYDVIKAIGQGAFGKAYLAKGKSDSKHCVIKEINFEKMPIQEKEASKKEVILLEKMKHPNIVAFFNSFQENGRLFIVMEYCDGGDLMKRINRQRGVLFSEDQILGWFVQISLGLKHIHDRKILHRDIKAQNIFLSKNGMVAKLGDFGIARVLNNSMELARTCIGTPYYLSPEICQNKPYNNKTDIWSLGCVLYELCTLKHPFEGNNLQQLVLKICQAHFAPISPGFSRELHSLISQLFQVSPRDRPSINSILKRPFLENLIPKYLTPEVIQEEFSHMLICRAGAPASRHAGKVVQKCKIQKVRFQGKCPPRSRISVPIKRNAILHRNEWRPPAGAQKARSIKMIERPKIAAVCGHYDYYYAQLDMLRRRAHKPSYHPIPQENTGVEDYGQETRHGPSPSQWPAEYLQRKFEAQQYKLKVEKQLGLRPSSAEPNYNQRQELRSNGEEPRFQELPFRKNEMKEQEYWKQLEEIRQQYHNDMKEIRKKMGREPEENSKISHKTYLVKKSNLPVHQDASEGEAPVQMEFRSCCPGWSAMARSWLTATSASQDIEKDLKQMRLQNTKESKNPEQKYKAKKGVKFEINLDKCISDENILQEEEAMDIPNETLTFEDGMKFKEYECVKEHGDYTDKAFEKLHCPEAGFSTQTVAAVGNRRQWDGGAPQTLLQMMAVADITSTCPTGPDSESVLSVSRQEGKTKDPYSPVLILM
# Chain of UniProt P31152 (whole entry, looked up): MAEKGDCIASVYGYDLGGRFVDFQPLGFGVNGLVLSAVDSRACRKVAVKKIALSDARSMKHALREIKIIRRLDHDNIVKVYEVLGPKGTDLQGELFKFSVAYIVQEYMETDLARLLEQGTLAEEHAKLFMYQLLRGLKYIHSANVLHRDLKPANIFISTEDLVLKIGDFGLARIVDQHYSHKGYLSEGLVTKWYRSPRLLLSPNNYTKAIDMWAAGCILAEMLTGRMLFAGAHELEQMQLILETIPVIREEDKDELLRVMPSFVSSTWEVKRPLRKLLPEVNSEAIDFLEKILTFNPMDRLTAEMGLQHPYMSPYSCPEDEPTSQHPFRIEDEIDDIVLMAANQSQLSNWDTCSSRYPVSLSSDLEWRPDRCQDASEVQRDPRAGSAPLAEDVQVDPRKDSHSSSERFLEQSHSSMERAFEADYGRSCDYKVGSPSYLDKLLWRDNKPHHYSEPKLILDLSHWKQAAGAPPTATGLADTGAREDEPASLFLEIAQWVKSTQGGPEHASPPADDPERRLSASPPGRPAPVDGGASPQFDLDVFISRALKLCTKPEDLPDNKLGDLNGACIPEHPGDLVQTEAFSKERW

# Block 1
# SMILES: N#Cc1c(NC(=O)c2cccc3ccccc23)sc2c1CCCC2
# Effect on: enzyme activity
# Mode: inhibitor
# Concentration: 0.5 µM
# Baseline: control
target,remaining activity [%]
"DDR2 (Homo sapiens, UniProt Q16832)",95.8
"Myosin-IIIb (MYO3B, Homo sapiens, UniProt Q8WXR4)",107
"CDC42BPB (Homo sapiens, UniProt Q9Y5S2)",98
"MET (Homo sapiens, UniProt P08581)",109
"MINK1 (Homo sapiens, UniProt Q8N4C8)",95.2
"CLK4 (Homo sapiens, UniProt Q9HAZ1)",92
"ROCK1 (Homo sapiens, UniProt Q13464)",96.3
"RPS6KA4 (Homo sapiens, UniProt O75676)",111
"KDR (Homo sapiens, UniProt P35968)",100
"MAP2K1 (Homo sapiens, UniProt Q02750)",98.4
"Cyclin-dependent kinase 9, with cyclin K (CDK9, Homo sapiens, UniProt P50750)",90.5
"PNCK (Homo sapiens, UniProt Q6P2M8)",104
"AKT2 (Homo sapiens, UniProt P31751)",105

# Block 2
# SMILES: CCS(=O)(=O)c1cc2cc(C[C@@](O)(CC(C)(C)c3ccc(F)cc3C(N)=O)C(F)(F)F)[nH]c2cn1
# Effect on: cell-free assay
# Technique: competition with immobilised ligand
# Concentration: 1 µM
target,remaining binding
"MET (Homo sapiens, UniProt P08581, Y1235D)",100%
"CDC42BPA (Homo sapiens, UniProt Q5VT25)",100%
"WNK4 (Homo sapiens, UniProt Q96J92)",84%
"MAPK14 (Homo sapiens, UniProt Q16539)",97%
"CDKL5 (Homo sapiens, UniProt O76039)",77%
"CDK11A (Homo sapiens, UniProt Q9UQ88)",100%
"NEK5 (Homo sapiens, UniProt Q6P3R8)",100%
"WNK1 (Homo sapiens, UniProt Q9H4A3)",90%
"SRPK2 (Homo sapiens, UniProt P78362)",70%
"GSK3A (Homo sapiens, UniProt P49840)",100%
"MAPK4 (Homo sapiens, UniProt P31152)",84%
"STK36 (Homo sapiens, UniProt Q9NRP7)",98%

# Block 3
# Cell line: HaCaT
# Concentration: 100 µM
# Time: 18 h
Structure (SMILES),viability [%]
OC[C@H]1O[C@@H](c2ccc(Cl)c(Cc3ccc(O[C@H]4CCOC4)cc3)c2)[C@H](O)[C@@H](O)[C@@H]1O,86.6
CCCCCCOC(=O)NC(=N)c1ccc(NCc2nc3cc(C(=O)N(CCC(=O)OCC)c4ccccn4)ccc3n2C)cc1,32.9
CC(=O)OCC(=O)[C@H]1CC[C@H]2[C@@H]3CCC4=CC(=O)CC[C@]4(C)[C@H]3CC[C@]12C,97.1
NNC(=O)c1ccncc1,110

# Single results of other studies
Compound,host,dose,setting,endpoint,value
CC(C)n1cnc(-c2ccc(F)cc2)c1-c1ncc(C(=O)Nc2ccc(N3CCN(C)CC3)cc2)[nH]1,IPF patients,dose not given,all drug arms pooled,Arrhythmia incidence,0%

# Excerpt of the above (block 1):
target,remaining activity [%]
"CDC42BPB (Homo sapiens, UniProt Q9Y5S2)",98
"MET (Homo sapiens, UniProt P08581)",109
"MINK1 (Homo sapiens, UniProt Q8N4C8)",95.2
